Results pooled from the literature.
Protocols differ between the studies behind these lines. “And” joins repeats or separate records; there may be more than shown. Numbers after ± are the reported error.
Cell line: A549

Structure (SMILES) | test | test system | setting | how to read | quantity | result
Cc1ccc(C(C)C)cc1.Cc1ccc(C(C)C)cc1.Cc1ccc(C(C)C)cc1.Cc1ccc(C(C)C)cc1.O=S(=O)(O)C(F)(F)F.O=S(=O)(O)C(F)(F)F.O=S(=O)(O)C(F)(F)F.O=S(=O)(O)C(F)(F)F.c1ccc2c3c4ccccc4c(c2c1)-c1cn(nn1)-c1cc[n+](cc1)[Ru-]1[O]c2ccc4c5c(ccc(c25)=[O+]1)=[O+][Ru-]([O]4)[n+]1ccc(cc1)-n1cc(nn1)-c1c2ccccc2c(c2ccccc12)-c1cn(nn1)-c1cc[n+](cc1)[Ru-]1[O]c2ccc4c5c(ccc(c25)=[O+]1)=[O+][Ru-]([O]4)[n+]1ccc(cc1)-n1cc-3nn1 | cell growth or viability, MTT | – | 24 h | – | IC50 | 11.9 µM
O=C1C(Cl)=C(Cl)C(=O)c2ccccc21 | cell growth or viability, MTT | – | – | – | IC50 | 38.1 µM
Cc1ccccc1/C=C/C(=O)N[C@@H](CO)C(=O)N[C@H](C(=O)N[C@H](Cc1ccccc1)C(=O)N[C@@H]1C(=O)N2[C@@H](CC(=O)O)C(=O)Nc3ccccc3[C@@]2(O)[C@@H]1O)[C@@H](C)O | – | – | – | – | IC50 | > 20 µM
O=c1n(CCNCCOS(=O)(=O)c2ccccc2)c(=O)n(S(=O)(=O)c2ccccc2)c(=O)n1S(=O)(=O)c1ccccc1 | cell growth or viability, MTT | – | 25 µg/mL, 24 h | – | viability | 60.7%
CC(C)(C)C(=O)OCOP(=O)(OCOC(=O)C(C)(C)C)C1CCCN(O)C1=O (stereo not shown) | – | – | – | – | Log10GI50 | -6.2 log M
CO[C@@H]1[C@@H](O)[C@H](O[C@H]2CC[C@@]3(C)[C@H](CC[C@@H]4[C@@H]3CC[C@]3(C)[C@@H](C5=CC(=O)OC5)[C@@H](O)C[C@]43O)C2)O[C@H](C)[C@@H]1O[C@@H]1O[C@H](CO)[C@@H](O)[C@H](O)[C@H]1O | cell growth or viability, MTT | – | 5 µM, 24 h | – | inhibition | 73.9%
O=C1C=CC(=O)c2c(O)cccc21 | cell growth or viability, MTT | – | – | – | IC50 | 275 µM
CC(=O)NCSC[C@H](NC(=O)[C@@H]1CCCN1C(=O)[C@H](C)NC(=O)[C@@H](NC(=O)CNC(=O)[C@@H](NC(=O)[C@H](Cc1c[nH]c2ccccc12)NC(=O)[C@H](C)NC(=O)CNC(=O)[C@H](CO)NC(=O)[C@H](C)NC(=O)[C@@H]1CCCN1C(=O)[C@H](Cc1c[nH]c2ccccc12)NC(=O)[C@H](C)NC(=O)[C@H](C)NC(=O)[C@@H](N)Cc1ccc(O)cc1)[C@@H](C)O)[C@@H](C)O)C(=O)N[C@@H](CO)C(=O)N[C@@H](C)C(=O)NCC(=O)N[C@H](C(=O)NCCOCCOCCOCCOCCOCCOCCOCCOCCOCCOCCOCCOCCC(=O)N[C@@H](CS)C(N)=O)[C@@H](C)O | phage binding | – | – | relative to: targeting over control phage | selectivity ratio | 17 ± 3.9
O=C1C=CC(=C(c2ccc(O)cc2)c2c(C#Cc3ccc(O)cc3)cccc2-c2ccc(O)cc2)C=C1 | cell growth or viability, MTT | – | 48 h | – | IC50 | 15.3 µM
C[C@H]1O[C@@H](O[C@H]2CC[C@@]3(C)[C@H](CC[C@@H]4[C@@H]3C[C@@H](O)[C@]3(C)[C@@H](C5=CC(=O)OC5)CC[C@]43O)C2)C[C@H](O)[C@@H]1O[C@@H]1O[C@H](CO)[C@@H](O)[C@H](O)[C@H]1O | cell growth or viability, MTT | – | 5 µM, 24 h | – | inhibition | 74.7%
CC(C)Cc1ccc(C(C)C(=O)[O-])cc1.CC(C)Cc1ccc(C(C)C(=O)[O-])cc1.[Cu+2].c1ccncc1.c1ccncc1 (stereo not shown) | cell growth or viability, MTT | – | 48 h | – | GI50 | 8 µM
CC(=O)[C@@H]1CCCN1C(=O)[C@@H]1CCCN1C(=O)[C@H](Cc1ccccc1)NC(=O)[C@@H](NC(=O)[C@@H](NC(=O)[C@@H](NC(=O)[C@@H]1CCCN1C(=O)[C@H](C)NC(=O)OC(C)(C)C)C(C)C)C(C)C)C(C)C | cell growth or viability, SRB | – | – | – | IC50 | 2.55 µM and 2.3 µM and 2.41 µM
Cc1cc(Oc2nc(N3CC[C@@H](c4ccncc4)C3)ncc2F)[nH]n1 | cell proliferation | lung cancer | – | – | IC50 | 40.7 µM

For quick reference, copied from above:
Structure (SMILES) | test | test system | setting | how to read | quantity | result
CC(=O)NCSC[C@H](NC(=O)[C@@H]1CCCN1C(=O)[C@H](C)NC(=O)[C@@H](NC(=O)CNC(=O)[C@@H](NC(=O)[C@H](Cc1c[nH]c2ccccc12)NC(=O)[C@H](C)NC(=O)CNC(=O)[C@H](CO)NC(=O)[C@H](C)NC(=O)[C@@H]1CCCN1C(=O)[C@H](Cc1c[nH]c2ccccc12)NC(=O)[C@H](C)NC(=O)[C@H](C)NC(=O)[C@@H](N)Cc1ccc(O)cc1)[C@@H](C)O)[C@@H](C)O)C(=O)N[C@@H](CO)C(=O)N[C@@H](C)C(=O)NCC(=O)N[C@H](C(=O)NCCOCCOCCOCCOCCOCCOCCOCCOCCOCCOCCOCCOCCC(=O)N[C@@H](CS)C(N)=O)[C@@H](C)O | phage binding | – | – | relative to: targeting over control phage | selectivity ratio | 17 ± 3.9
